# Results collected from several papers.
# ± gives the spread as reported.
# Sequence of UniProt Q13561 (whole entry, looked up): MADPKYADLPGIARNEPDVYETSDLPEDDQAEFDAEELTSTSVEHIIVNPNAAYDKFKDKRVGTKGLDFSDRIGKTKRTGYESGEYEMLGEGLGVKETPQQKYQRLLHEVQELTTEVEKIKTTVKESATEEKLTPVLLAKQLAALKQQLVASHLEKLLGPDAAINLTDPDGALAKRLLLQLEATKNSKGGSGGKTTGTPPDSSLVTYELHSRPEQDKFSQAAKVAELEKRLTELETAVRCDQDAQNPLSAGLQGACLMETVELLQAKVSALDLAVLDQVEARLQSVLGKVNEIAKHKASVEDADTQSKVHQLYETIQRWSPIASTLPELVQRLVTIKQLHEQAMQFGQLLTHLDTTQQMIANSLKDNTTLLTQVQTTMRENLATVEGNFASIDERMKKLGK
# Sequence of UniProt Q2TAA2 (whole entry, looked up): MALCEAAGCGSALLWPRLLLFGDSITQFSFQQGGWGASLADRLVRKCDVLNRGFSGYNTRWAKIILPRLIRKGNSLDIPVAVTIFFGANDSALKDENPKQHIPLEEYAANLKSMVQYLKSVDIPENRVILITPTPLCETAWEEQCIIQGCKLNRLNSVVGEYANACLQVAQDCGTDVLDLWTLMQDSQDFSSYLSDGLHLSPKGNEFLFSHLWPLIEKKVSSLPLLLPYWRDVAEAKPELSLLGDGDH
# Sequence of UniProt P28335 (whole entry, looked up): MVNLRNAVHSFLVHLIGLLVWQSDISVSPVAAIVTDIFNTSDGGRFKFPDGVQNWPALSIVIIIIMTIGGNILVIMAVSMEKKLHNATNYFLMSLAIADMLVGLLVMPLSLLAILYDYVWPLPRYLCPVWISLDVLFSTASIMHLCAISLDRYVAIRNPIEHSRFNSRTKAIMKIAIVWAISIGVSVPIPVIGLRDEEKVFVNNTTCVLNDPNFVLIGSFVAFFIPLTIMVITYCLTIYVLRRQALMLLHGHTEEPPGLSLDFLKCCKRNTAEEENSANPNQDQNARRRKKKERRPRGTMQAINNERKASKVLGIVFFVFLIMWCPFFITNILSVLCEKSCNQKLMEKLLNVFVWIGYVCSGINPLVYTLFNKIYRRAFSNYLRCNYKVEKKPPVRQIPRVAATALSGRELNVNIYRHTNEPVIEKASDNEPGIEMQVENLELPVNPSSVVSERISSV
# Sequence of UniProt Q9NQU5 (whole entry, looked up): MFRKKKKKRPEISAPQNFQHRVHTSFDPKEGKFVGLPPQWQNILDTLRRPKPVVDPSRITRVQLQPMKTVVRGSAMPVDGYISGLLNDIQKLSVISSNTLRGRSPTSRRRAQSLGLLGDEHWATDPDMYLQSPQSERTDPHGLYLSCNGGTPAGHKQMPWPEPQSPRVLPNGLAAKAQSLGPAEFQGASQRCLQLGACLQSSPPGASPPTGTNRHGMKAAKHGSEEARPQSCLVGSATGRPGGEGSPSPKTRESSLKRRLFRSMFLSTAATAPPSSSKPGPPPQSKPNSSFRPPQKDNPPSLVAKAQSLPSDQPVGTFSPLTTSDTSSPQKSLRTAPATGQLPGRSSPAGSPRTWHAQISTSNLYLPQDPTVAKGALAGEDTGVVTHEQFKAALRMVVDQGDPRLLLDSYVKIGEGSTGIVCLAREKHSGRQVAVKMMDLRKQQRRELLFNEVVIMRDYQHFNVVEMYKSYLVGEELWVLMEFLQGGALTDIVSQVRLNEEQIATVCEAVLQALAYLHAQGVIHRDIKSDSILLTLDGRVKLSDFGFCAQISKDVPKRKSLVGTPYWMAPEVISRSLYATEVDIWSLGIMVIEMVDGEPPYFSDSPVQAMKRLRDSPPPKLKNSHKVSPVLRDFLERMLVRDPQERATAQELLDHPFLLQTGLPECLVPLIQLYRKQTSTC
# Sequence of UniProt Q9H2G2 (whole entry, looked up): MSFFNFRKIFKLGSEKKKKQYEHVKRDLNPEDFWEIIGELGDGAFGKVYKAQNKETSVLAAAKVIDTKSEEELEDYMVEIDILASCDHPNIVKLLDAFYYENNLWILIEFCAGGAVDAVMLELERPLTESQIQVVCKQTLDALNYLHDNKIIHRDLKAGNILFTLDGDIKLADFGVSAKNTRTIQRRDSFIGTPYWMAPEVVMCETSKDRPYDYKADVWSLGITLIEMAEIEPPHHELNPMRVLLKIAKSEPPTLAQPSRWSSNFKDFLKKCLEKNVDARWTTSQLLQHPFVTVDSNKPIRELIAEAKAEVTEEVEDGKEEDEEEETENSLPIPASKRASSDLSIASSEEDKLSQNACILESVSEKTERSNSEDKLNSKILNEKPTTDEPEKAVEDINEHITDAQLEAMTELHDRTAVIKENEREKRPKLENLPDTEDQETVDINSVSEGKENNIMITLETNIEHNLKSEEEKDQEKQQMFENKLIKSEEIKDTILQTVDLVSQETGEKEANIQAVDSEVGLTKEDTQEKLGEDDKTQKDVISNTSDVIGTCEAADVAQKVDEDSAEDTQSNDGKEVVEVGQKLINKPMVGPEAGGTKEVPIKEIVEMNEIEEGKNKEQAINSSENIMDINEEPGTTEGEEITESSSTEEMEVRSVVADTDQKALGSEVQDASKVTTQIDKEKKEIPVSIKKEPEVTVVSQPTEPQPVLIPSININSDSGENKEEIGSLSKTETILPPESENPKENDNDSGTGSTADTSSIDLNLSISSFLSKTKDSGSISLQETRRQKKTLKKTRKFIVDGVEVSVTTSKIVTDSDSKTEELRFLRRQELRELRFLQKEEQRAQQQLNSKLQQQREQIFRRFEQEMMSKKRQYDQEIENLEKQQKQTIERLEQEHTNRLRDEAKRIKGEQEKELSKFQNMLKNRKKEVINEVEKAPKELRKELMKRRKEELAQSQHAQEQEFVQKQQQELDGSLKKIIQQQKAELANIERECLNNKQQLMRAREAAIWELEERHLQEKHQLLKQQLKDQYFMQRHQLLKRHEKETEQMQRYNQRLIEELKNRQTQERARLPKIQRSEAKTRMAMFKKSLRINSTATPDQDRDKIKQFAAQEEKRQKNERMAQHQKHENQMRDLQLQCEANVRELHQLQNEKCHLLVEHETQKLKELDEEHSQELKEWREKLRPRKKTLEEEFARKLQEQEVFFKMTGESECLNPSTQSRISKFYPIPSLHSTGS
# Sequence of UniProt Q8NFN8 (whole entry, looked up): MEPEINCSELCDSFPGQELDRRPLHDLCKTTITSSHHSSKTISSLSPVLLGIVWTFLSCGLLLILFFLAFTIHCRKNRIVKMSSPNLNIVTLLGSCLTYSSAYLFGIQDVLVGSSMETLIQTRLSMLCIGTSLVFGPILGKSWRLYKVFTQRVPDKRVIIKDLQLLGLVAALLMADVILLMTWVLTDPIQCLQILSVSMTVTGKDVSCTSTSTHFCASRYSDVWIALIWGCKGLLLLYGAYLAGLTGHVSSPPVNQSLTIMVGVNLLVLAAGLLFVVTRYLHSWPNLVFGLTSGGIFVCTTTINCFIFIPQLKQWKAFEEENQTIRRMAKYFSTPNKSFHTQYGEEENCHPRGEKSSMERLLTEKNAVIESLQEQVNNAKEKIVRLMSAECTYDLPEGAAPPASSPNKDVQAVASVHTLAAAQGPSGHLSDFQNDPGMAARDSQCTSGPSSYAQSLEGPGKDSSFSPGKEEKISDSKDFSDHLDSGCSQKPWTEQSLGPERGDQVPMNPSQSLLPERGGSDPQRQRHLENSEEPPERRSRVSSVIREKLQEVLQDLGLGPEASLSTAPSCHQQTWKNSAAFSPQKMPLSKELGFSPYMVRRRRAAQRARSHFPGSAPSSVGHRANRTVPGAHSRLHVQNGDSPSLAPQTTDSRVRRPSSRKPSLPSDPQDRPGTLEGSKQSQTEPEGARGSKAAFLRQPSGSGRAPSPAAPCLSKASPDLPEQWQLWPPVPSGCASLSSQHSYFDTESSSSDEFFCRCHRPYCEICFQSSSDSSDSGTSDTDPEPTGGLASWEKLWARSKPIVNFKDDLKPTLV
# Sequence of UniProt Q93096 (whole entry, looked up): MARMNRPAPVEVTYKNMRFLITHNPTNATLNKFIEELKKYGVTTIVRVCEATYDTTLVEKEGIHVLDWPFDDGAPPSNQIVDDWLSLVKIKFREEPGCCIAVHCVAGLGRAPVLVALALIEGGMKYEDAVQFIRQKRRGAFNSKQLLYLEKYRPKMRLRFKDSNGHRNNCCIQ
# Sequence of UniProt Q8NET8 (whole entry, unmodified, looked up): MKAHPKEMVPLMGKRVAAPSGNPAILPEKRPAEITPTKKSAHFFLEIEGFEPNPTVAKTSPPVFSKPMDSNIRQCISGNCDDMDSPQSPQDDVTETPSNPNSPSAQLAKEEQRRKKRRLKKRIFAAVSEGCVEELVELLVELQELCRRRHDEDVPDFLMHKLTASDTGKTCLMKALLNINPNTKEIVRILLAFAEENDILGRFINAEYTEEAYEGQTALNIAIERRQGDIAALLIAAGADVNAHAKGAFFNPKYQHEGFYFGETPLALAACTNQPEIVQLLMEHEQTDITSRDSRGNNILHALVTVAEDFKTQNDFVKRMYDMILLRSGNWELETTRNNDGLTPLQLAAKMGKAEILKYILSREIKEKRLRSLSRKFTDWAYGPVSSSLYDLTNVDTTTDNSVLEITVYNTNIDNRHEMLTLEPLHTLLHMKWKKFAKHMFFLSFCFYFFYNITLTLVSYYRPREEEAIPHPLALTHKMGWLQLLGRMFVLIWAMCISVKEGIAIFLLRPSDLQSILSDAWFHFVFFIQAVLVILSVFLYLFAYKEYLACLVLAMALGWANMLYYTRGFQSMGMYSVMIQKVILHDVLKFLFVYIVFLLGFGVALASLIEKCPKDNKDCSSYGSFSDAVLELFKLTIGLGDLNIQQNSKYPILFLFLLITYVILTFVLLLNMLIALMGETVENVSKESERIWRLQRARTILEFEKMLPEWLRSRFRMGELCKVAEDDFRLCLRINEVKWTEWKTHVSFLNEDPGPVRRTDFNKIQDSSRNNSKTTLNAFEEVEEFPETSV
Compound,tested on,test,system,conditions,scale,endpoint,value
O=C(c1ccc(Cl)cc1)N1CCN2C(=O)N(OC(=O)N3CCOc4ccccc43)C(=O)C2C1 (stereo not drawn),"Isoamyl acetate-hydrolyzing esterase 1 homolog (IAH1, Homo sapiens, UniProt Q2TAA2)","enzyme activity, inhibitor, MS-based ABPP",SW-620 conditioned medium,"10 µM, 1 h, 37 °C","baseline: compound over DMSO, lower = stronger inhibition",median ratio,1.55
COc1ccc(N2C(=O)N(c3c(C)cccc3Cl)Cc3cnc(Nc4ccc(C5CCN(C)CC5)cc4OC)nc32)nc1,"Serine/threonine-protein kinase PAK 6 (PAK6, Homo sapiens, UniProt Q9NQU5)",kinase activity,,0.5 µM,,inhibition,3.29%
C[C@@H](O)[C@@H](CO)NC(=O)[C@@H](CCCNC(=N)N)NC(=O)[C@@H]1CCCN1C(=O)[C@@H]1CSSC[C@H](NC(=O)[C@H](Cc2ccccc2)NC(=O)CN2CCN(CC(=O)O)CCN(CC(=O)O)CCN(CC(=O)O)CC2)C(=O)N[C@@H](Cc2ccc(O)cc2)C(=O)N[C@@H](Cc2ccccc2)C(=O)N[C@@H](CCC(N)=O)C(=O)N[C@@H](CC(N)=O)C(=O)N1 [gallium-68 labelled],,,"Wistar rat, lungs","intravenous, 8 MBq, 120 min, group mean",,tissue uptake,0.08 %ID/g
CO[C@H]1C[C@@H]2CC[C@@H](C)[C@@](O)(O2)C(=O)C(=O)N2CCCC[C@H]2C(=O)O[C@H]([C@H](C)C[C@@H]2CC[C@@H](OC(=O)NCCOCCOCCOCCOCCOCCOCCOCCOCCC(=O)N3CCc4cc(Cn5nc(-c6ccc7oc(N)nc7c6)c6c(N)ncnc65)ccc4C3)[C@H](OC)C2)C[C@@H](O)[C@H](C)/C=C(\C)[C@@H](O)[C@@H](OC)C(=O)[C@H](C)C[C@H](C)/C=C/C=C/C=C/1C,,,patients with advanced solid tumours,"intravenous, 1.6 mg/3 mg weekly, grade ≥3",,incidence of Headache TRAE,0%
[2H]c1c([2H])c([C@]2([2H])CCCN2C(=O)C(C)(C)Oc2ccc3cn[nH]c3c2)c([2H])c([2H])c1C([2H])([2H])[2H],"STE20-like serine/threonine-protein kinase (SLK, Homo sapiens, UniProt Q9H2G2)",KINOMEscan,,1 µM,baseline: DMSO control,remaining binding,82%
CN[C@@]1(c2ccccc2Cl)CCCCC1=O,"5-hydroxytryptamine receptor 1A (HTR1A, Homo sapiens, UniProt P08908)","radioligand binding, agonist, radioligand displacement",,30 µM,,inhibition,18%
CC[C@H](C)[C@H](NC(=O)[C@H](Cc1ccccc1)NC(=O)[C@H](CCC(=O)O)NC(=O)[C@H](CCCNC(=N)N)NC(=O)[C@H](C)NC(=O)[C@H](C)NC(=O)[C@H](CCC(N)=O)NC(=O)[C@H](CCC(=O)O)NC(=O)[C@H](CCC(=O)O)NC(=O)[C@H](CC(C)C)NC(=O)[C@H](Cc1ccc(O)cc1)NC(=O)[C@H](CO)NC(=O)[C@H](CO)NC(=O)[C@@H](NC(=O)[C@H](CC(=O)O)NC(=O)[C@H](CO)NC(=O)[C@@H](NC(=O)[C@H](Cc1ccccc1)NC(=O)[C@@H](NC(=O)CNC(=O)[C@H](CCC(=O)O)NC(=O)[C@H](C)NC(=O)CCc1c[nH]cn1)[C@@H](C)O)[C@@H](C)O)C(C)C)C(=O)N[C@@H](C)C(=O)N[C@@H](Cc1c[nH]c2ccccc12)C(=O)N[C@@H](CC(C)C)C(=O)N[C@H](C(=O)N[C@@H](CCCNC(=N)N)C(=O)NCC(=O)N[C@@H](CCCNC(=N)N)C(=O)N[C@@H](CCCCNC(=O)COCCOCCNC(=O)COCCOCCNC(=O)CC[C@H](NC(=O)CCCCCCCCCCCCCCCCC(=O)O)C(=O)O)C(=O)NCC(=O)NCC(=O)N[C@@H](CO)C(=O)N[C@@H](CCCCNc1c(NCCCCCN(O)C(=O)CCC(=O)NCCCCCN(O)C(=O)CCC(=O)NCCCCCN(O)C(C)=O)c(=O)c1=O)C(=O)O)C(C)C [zirconium-89 labelled],,ex vivo gamma counting,"rat, knee","subcutaneous, 3 nmol/kg, 72 h, added: [89Zr]-labelled peptide",,tissue uptake,0.18 %ID/g
CN1CC[C@]2(C)c3cc(OC(=O)Nc4ccccc4)ccc3N(C)[C@H]12,human nicotinic α3β2 receptor,radioligand binding,,"10 µM, added: [3H]epibatidine",,inhibition,0%
COc1cc2c(Oc3ccc4[nH]c(C)cc4c3F)ccnc2cc1OCC1(N)CC1,,,paediatric recurrent refractory sarcoma,12 mg,,grade 3 weight loss,0%
COc1cc(Nc2ncc(F)c(Nc3ccc4c(n3)NC(=O)C(C)(C)O4)n2)cc(OC)c1OC,"Protein tyrosine phosphatase type IVA 1 (Homo sapiens, UniProt Q93096)",,,PRL-1,,IC50,> 10 µM
COc1ccc2c(-c3nc(-c4c(C)[nH]c5ccc(OC)cc45)cs3)c[nH]c2c1,differentiated W12E,CUT&RUN-qPCR,,concentration not given,baseline: untreated,53BP1 binding at HPV ori,decreased
COc1cc(N)c(Cl)cc1C(=O)NC1CN2CCC1CC2 (stereo not drawn),"Probable G-protein coupled receptor 156 (GPR156, Homo sapiens, UniProt Q8NFN8)","β-arrestin recruitment, TANGO luminescence, measured: GPR156",,concentration not given,baseline: basal luminescence,log2 fold change,0.013
CC[C@H](C)[C@@H]1NC(=O)[C@@H]2CCCN2C(=O)[C@H](CC(C)C)NC(=O)[C@H](CC(C)C)NC(=O)CNC(=O)[C@@H](NC(=O)[C@@H](NC(=O)[C@H](CC(=O)O)NC(=O)CNC(=O)[C@@H](NC(=O)[C@H](C)NC(=O)CNC(=O)[C@H](CCCCN)NC(=O)[C@H](CC(C)C)NC(=O)[C@H](CC(C)C)NC(=O)[C@H](CCCCN)NC(=O)CNC(=O)[C@@H](NC(=O)[C@@H](N)CC(C)C)C(C)C)C(C)C)C(C)C)CSSC[C@@H](C(=O)O)NC1=O,,"RNA-seq, measured: Prdm1","mouse, traumatic brain injury model, frontal cortex and hippocampus",dose not given,baseline: TBI alone,log2 fold change,-1.3
CN1CCN(c2cc(-c3ccncc3)c(-c3ccc4ccccc4c3)nn2)CC1,"5-hydroxytryptamine receptor 2C (HTR2C, Homo sapiens, UniProt P28335)","antagonist, FLIPR",,10 µM,,inhibition,-9.6%
Oc1ccc2c3c1O[C@H]1[C@@H](O)CC[C@@]4(O)[C@@H](C2)N(CC2CCC2)CC[C@]314,"KiSS-1 receptor (KISS1R, Homo sapiens, UniProt Q969F8)","receptor activation, TANGO luminescence",,"concentration not given, unconfirmed screen",baseline: vehicle control,log2 fold change,-0.55
CCCc1cc(O)c2c(c1)OC(C)(C)[C@@H]1CCC(C)=C[C@@H]21,"Transient receptor potential cation channel subfamily V member 3 (TRPV3, Homo sapiens, UniProt Q8NET8, L557A)","calcium uptake, TRPV3 modulator, Fura-2 AM calcium imaging",,,,Hill coefficient,1.03 ± 0.09
C[C@H]1CN(c2n[nH]c3nc(N[C@H]4CC[C@H](NS(=O)(=O)CCC(F)(F)F)CC4)ncc23)CCO1,"Dynactin subunit 2 (DCTN2, Homo sapiens, UniProt Q13561)","Kinobeads competition, measured: DCTN2",,"20 µM, unit not given",baseline: vehicle,remaining binding,1.24
CC[C@H](C)[C@H](NC(=O)CNC(=O)[C@@H](N)CCCCN)C(=O)N[C@@H](CC(C)C)C(=O)N[C@@H](CCCCN)C(=O)N[C@@H](CCCNC(=N)N)C(=O)N[C@@H](CCC(=O)O)C(=O)N[C@@H](CCCCN)C(=O)N[C@@H](CCCNC(=N)N)C(=O)N[C@@H](CC(C)C)C(=O)N[C@@H](CCCNC(=N)N)C(=O)N[C@@H](CCCNC(=N)N)C(=O)N[C@@H](CCCCN)C(=O)N[C@@H](CC(N)=O)C(=O)N[C@H](C(=O)N[C@@H](Cc1c[nH]cn1)C(=O)N[C@@H](Cc1c[nH]c2ccccc12)C(=O)N1CCC[C@H]1C(=O)N[C@@H](CCC(=O)O)C(=O)N[C@@H](CCC(=O)O)C(=O)NCC(=O)N[C@@H](CCCCN)C(=O)N[C@@H](CC(C)C)C(=O)N[C@@H](CCCNC(=N)N)C(=O)N[C@@H](CCC(=O)O)C(=O)N[C@@H](Cc1ccccc1)C(=O)N[C@@H](Cc1ccccc1)C(=O)N[C@@H](Cc1ccccc1)C(=O)N[C@@H](Cc1ccccc1)C(=O)N[C@@H](CCC(=O)O)C(=O)N[C@@H](CC(C)C)C(=O)N[C@@H](CC(=O)O)C(=O)N[C@@H](CCC(=O)O)C(=O)N[C@@H](C)C(=O)N[C@@H](CCC(=O)O)C(=O)N[C@@H](CCCNC(=N)N)C(=O)N[C@H](C(=O)N[C@@H](CC(N)=O)C(=O)N[C@H](C(=O)O)C(C)C)C(C)C)C(C)C,HeLa and HEK-293T cells,"phosphatase bead binding, competitive inhibitor, PIB pulldown iBAQ LC-MS/MS, measured: STRN4",,concentration not given,baseline: untreated control,log2 fold change,-0.21

# For quick reference, copied from above:
Compound,tested on,test,system,conditions,scale,endpoint,value
O=C(c1ccc(Cl)cc1)N1CCN2C(=O)N(OC(=O)N3CCOc4ccccc43)C(=O)C2C1 (stereo not drawn),"Isoamyl acetate-hydrolyzing esterase 1 homolog (IAH1, Homo sapiens, UniProt Q2TAA2)","enzyme activity, inhibitor, MS-based ABPP",SW-620 conditioned medium,"10 µM, 1 h, 37 °C","baseline: compound over DMSO, lower = stronger inhibition",median ratio,1.55
CN[C@@]1(c2ccccc2Cl)CCCCC1=O,"5-hydroxytryptamine receptor 1A (HTR1A, Homo sapiens, UniProt P08908)","radioligand binding, agonist, radioligand displacement",,30 µM,,inhibition,18%
